Experimental data collected from several papers.
Compare with care: the assays were run in different laboratories. Several values in a cell are separate wells, animals, samples, runs or records. Numbers after ± are the reported error.
Sequence of UniProt P16234 (whole entry, looked up): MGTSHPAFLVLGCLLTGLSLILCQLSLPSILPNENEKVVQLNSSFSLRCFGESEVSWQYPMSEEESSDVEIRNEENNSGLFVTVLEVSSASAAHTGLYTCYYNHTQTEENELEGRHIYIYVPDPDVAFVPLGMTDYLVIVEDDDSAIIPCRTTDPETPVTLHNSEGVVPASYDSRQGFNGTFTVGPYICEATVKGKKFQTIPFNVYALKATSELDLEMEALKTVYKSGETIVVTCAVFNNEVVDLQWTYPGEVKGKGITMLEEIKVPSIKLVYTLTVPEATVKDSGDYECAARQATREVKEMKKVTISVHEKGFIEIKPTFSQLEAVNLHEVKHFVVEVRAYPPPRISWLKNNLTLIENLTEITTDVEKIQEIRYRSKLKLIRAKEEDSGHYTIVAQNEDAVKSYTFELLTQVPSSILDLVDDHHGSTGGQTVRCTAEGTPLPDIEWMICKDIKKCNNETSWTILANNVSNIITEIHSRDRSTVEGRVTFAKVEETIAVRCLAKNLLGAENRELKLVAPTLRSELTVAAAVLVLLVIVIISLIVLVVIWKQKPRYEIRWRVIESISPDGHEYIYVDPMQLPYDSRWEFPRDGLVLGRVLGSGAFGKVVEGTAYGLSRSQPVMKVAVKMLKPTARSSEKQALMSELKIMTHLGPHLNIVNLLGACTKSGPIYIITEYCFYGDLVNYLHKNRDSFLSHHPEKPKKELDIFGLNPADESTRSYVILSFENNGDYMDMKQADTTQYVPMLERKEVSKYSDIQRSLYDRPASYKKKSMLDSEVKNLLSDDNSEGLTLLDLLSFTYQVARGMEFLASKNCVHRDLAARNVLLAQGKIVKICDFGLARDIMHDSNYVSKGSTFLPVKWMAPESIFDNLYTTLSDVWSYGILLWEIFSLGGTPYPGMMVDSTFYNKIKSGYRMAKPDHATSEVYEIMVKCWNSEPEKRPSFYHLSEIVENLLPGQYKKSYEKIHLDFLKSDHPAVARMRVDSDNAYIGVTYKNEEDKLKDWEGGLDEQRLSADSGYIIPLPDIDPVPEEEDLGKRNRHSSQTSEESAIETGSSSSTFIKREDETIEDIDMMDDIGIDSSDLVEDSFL
Sequence of UniProt P13945 (whole entry, looked up): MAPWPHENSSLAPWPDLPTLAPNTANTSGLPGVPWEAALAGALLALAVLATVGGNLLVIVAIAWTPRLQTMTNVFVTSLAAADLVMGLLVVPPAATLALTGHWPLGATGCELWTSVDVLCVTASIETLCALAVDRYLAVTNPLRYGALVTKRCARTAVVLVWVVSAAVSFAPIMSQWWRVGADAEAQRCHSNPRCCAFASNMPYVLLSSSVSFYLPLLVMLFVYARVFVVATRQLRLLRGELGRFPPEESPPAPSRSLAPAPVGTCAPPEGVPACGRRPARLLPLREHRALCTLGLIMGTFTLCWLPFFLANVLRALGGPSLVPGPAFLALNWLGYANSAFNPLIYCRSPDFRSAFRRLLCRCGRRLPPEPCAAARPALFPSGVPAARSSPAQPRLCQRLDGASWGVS

CC(C)C[C@H](NC(=O)[C@H](CCCCN)NC(=O)OCC1c2ccccc2-c2ccccc21)C(=O)N[C@H](C(=O)N[C@@H](Cc1ccccc1)C(=O)N[C@@H](Cc1ccccc1)C(=O)N[C@@H](CCCCN)C(=O)NCC(=O)N[C@@H](Cc1ccccc1)C(=O)N[C@@H](C)C(=O)N[C@@H](Cc1c[nH]c2ccccc12)C(=O)N[C@@H](CC(N)=O)C(=O)N[C@H](C(=O)N[C@H]1CSSC[C@@H](C(=O)N[C@@H](Cc2c[nH]cn2)C(=O)N[C@@H](CCCNC(=N)N)C(=O)N[C@@H](CCCNC(=N)N)C(=O)N[C@@H](C)C(=O)N[C@@H](CC(N)=O)C(N)=O)NC(=O)[C@H](C(C)C)NC(=O)[C@H](CCCNC(=N)N)NC(=O)[C@H](C(C)C)NC(=O)CNC(=O)[C@H](CC(N)=O)NC(=O)[C@H](CCCNC(=N)N)NC(=O)[C@H](Cc2ccc(O)cc2)NC(=O)[C@H](C(C)C)NC1=O)C(C)C)C(C)C — platelet distribution width (ICR mice, blood; intraductal mammary, 5 mg/kg, day 5): 15.8 ± 0.25%
CO[C@H]1C[C@@H]2CC[C@@H](C)[C@@](O)(O2)C(=O)C(=O)N2CCCC[C@H]2C(=O)O[C@H]([C@H](C)C[C@@H]2CC[C@@H](OC(=O)NCCOCCOCCOCCOCCOCCOCCOCCOCCC(=O)N3CCc4cc(Cn5nc(-c6ccc7oc(N)nc7c6)c6c(N)ncnc65)ccc4C3)[C@H](OC)C2)C[C@@H](O)[C@H](C)/C=C(\C)[C@@H](O)[C@@H](OC)C(=O)[C@H](C)C[C@H](C)/C=C/C=C/C=C/1C — mucositis incidence (patients with advanced solid tumours; intravenous, 6 mg weekly, grade 3 or higher): 8.3%
COc1cc(Nc2ncc(F)c(Nc3ccc4c(n3)NC(=O)C(C)(C)O4)n2)cc(OC)c1OC — IC50 (ADRB3 (Homo sapiens, UniProt P13945)): > 10 µM
C[C@H]1O[C@@H](O[C@H]2CC[C@@]3(C)[C@@H](CC[C@]4(C)[C@@H]3C=C[C@]35OC[C@@]6(CCC(C)(C)C[C@H]63)[C@@H](O)C[C@]54C)[C@]2(C)CO)[C@H](O)[C@@H](O[C@@H]2O[C@H](CO)[C@@H](O)[C@H](O)[C@H]2O)[C@H]1O — total cholesterol (mouse, ethanol-fed, hepatic SIRT1 knockdown, plasma; dose not given, 5 h, high dose): 2.99 mM and 3.51 mM and 3.01 mM and 3.09 mM and 3.29 mM
CC[C@H](C)[C@@H]1NC(=O)[C@@H]2CCCN2C(=O)[C@H](CC(C)C)NC(=O)[C@H](CC(C)C)NC(=O)CNC(=O)[C@@H](NC(=O)[C@@H](NC(=O)[C@H](CC(=O)O)NC(=O)CNC(=O)[C@@H](NC(=O)[C@H](C)NC(=O)CNC(=O)[C@H](CCCCN)NC(=O)[C@H](CC(C)C)NC(=O)[C@H](CC(C)C)NC(=O)[C@H](CCCCN)NC(=O)CNC(=O)[C@@H](NC(=O)[C@@H](N)CC(C)C)C(C)C)C(C)C)C(C)C)CSSC[C@@H](C(=O)O)NC1=O — log2 fold change (RNA-seq, measured: Ighv1-80 mRNA; mouse traumatic brain injury, frontal cortex and hippocampus; dose not given; baseline: TBI plus compound vs TBI): -5.4
CC(C)C[C@@H]1NC(=O)[C@H](CC(C)C)NC(=O)[C@H](Cc2c[nH]c3ccccc23)NC(=O)[C@H](CO)NC(=O)[C@H](Cc2c[nH]c3ccccc23)NC(=O)[C@@H]2CCCN2C(=O)[C@H](CC(C)C)NC(=O)[C@H](Cc2c[nH]cn2)NC(=O)[C@@H]2CCCN2C(=O)[C@H](CC(N)=O)NC(=O)[C@H](C)NC(=O)[C@H](Cc2ccc(O)cc2)NC(=O)[C@H](CS)NC(=O)[C@H](CCCCNC(=O)CN2CCN(CC(=O)O)CCN(CC(=O)O)CCN(CC(=O)O)CC2)NC1=O [lutetium-177 labelled] — tissue uptake (Balb/c mouse, female, 4T1 tumour, liver; intravenous, 3.7 MBq, 24 h): 5.46 ± 1 %ID
CCN1CCN(Cc2ccc(Nc3ncc(F)c(-c4cc(F)c5nc6n(c5c4)[C@H](C)CCC6)n3)nc2)CC1 — Hypokalemia incidence, any grade (advanced solid tumour patients; dose not given, Phase Ia monotherapy): 20.8%
C[C@]1(CO)Cc2ncn(-c3ccc(C#N)c(Cl)c3)c2C(=O)O1 — AUC(0-inf) (human, plasma; 20 mg single dose, geometric mean): 4.36 µM·h
[O-][S+]1CCc2nc(N3CCC(c4ncc(Cl)cn4)CC3)nc(NC3(CO)CCC3)c21 (stereo not drawn) — adverse event incidence (measured: Diarrhoea; healthy male humans; single dose, all groups): 8.3%
N[C@@H]1c2ccccc2OC12CCN(c1cnc3c(N4CCCc5ncccc54)n[nH]c3n1)CC2 — dose-limiting toxicity (advanced metastatic solid tumour patients; oral, 50 mg once daily, cycle 1, 21 days): 0%
CC(C)n1c(C2CCNCC2)nc2c([N+](=O)[O-])c(Br)c(Br)cc21 — adverse events causing discontinuation (measured: Nausea; AML patients; 125 mg): 2%
O=C(Nc1ccccc1)C1CCN(C(=O)Oc2cccnc2)CC1 — adverse event Erythema (healthy women; oral, 60 mg, 7 days): 0%
N#Cc1cc(NC(=O)[C@H]2c3ccccc3C(=O)N(CC(F)(F)F)[C@@H]2c2cccnc2)ccc1F — well tolerated dose (Beagle dog, both sexes; oral, 3 days): ≤ 1000 mg/kg
Cn1cncc1-c1c(F)cncc1NC(=O)c1c(N)nn2cc(F)cnc12 — patients grade ≥3 Anemia (human patients; oral, 220 mg once daily, 2 weeks on 1 week off): 67%
O[C@H]1CCCN[C@@H]1CCCn1cnc2c(Cl)c(Cl)ccc21 — AUC(0-12 h) (human, UGT2B7 ND+DD phenotype, plasma; oral, 150 mg, single dose): 640 ng·h/mL
CC[C@H](C)[C@H](NC(=O)[C@H](Cc1ccccc1)NC(=O)[C@H](CCC(=O)O)NC(=O)[C@H](CCCNC(=N)N)NC(=O)[C@H](C)NC(=O)[C@H](C)NC(=O)[C@H](CCC(N)=O)NC(=O)[C@H](CCC(=O)O)NC(=O)[C@H](CCC(=O)O)NC(=O)[C@H](CC(C)C)NC(=O)[C@H](Cc1ccc(O)cc1)NC(=O)[C@H](CO)NC(=O)[C@H](CO)NC(=O)[C@@H](NC(=O)[C@H](CC(=O)O)NC(=O)[C@H](CO)NC(=O)[C@@H](NC(=O)[C@H](Cc1ccccc1)NC(=O)[C@@H](NC(=O)CNC(=O)[C@H](CCC(=O)O)NC(=O)[C@H](C)NC(=O)CCc1c[nH]cn1)[C@@H](C)O)[C@@H](C)O)C(C)C)C(=O)N[C@@H](C)C(=O)N[C@@H](Cc1c[nH]c2ccccc12)C(=O)N[C@@H](CC(C)C)C(=O)N[C@H](C(=O)N[C@@H](CCCNC(=N)N)C(=O)NCC(=O)N[C@@H](CCCNC(=N)N)C(=O)N[C@@H](CCCCNC(=O)COCCOCCNC(=O)COCCOCCNC(=O)CC[C@H](NC(=O)CCCCCCCCCCCCCCCCC(=O)O)C(=O)O)C(=O)NCC(=O)NCC(=O)N[C@@H](CO)C(=O)N[C@@H](CCCCNc1c(NCCCCCN(O)C(=O)CCC(=O)NCCCCCN(O)C(=O)CCC(=O)NCCCCCN(O)C(C)=O)c(=O)c1=O)C(=O)O)C(C)C [zirconium-89 labelled] — tissue uptake (rat, knee; intravenous, 3 nmol/kg, 4 h): 0.3 %ID/g
C[C@H]1COCCN1c1nc(NCc2cccnc2C(F)(F)F)c2cccnc2n1 — PCE share (male CD-1 mouse, femur bone marrow; oral, 1000 mg/kg twice, 48 h): 48.5% and 55.5% and 38%
COc1cc2c(Oc3ccc4[nH]c(C)cc4c3F)ccnc2cc1OCC1(N)CC1 — abnormal ECG T wave incidence (sarcoma, recurrent or refractory, high-risk, paediatric; concentration not given, grade 3, whole group): 0%
C[C@@H](O)[C@@H](CO)NC(=O)[C@@H](CCCNC(=N)N)NC(=O)[C@@H]1CCCN1C(=O)[C@@H]1CSSC[C@H](NC(=O)[C@H](Cc2ccccc2)NC(=O)CN2CCN(CC(=O)O)CCN(CC(=O)O)CCN(CC(=O)O)CC2)C(=O)N[C@@H](Cc2ccc(O)cc2)C(=O)N[C@@H](Cc2ccccc2)C(=O)N[C@@H](CCC(N)=O)C(=O)N[C@@H](CC(N)=O)C(=O)N1 [gallium-68 labelled] — tissue uptake (healthy Wistar rat, spleen; intravenous, 8 MBq, 120 min, individual animals): 0.09 %ID/g
COc1ccc(N2C(=O)N(c3c(C)cccc3Cl)Cc3cnc(Nc4ccc(C5CCN(C)CC5)cc4OC)nc32)nc1 — inhibition (PDGFRA (Homo sapiens, UniProt P16234); kinase activity, inhibitor; 0.5 µM, kinase PDGFR-ALPHA): 99%
CC(C)(O)c1cc(Nc2cc(Oc3cn(C4CC4)nc3C3CCOCC3)ccn2)ccn1 — treatment-emergent adverse events (measured: Pyrexia; Japanese patients with advanced cancer; oral, dose not given, any grade): 0%

For quick reference, copied from above:
C[C@H]1COCCN1c1nc(NCc2cccnc2C(F)(F)F)c2cccnc2n1 — PCE share (male CD-1 mouse, femur bone marrow; oral, 1000 mg/kg twice, 48 h): 48.5% and 55.5% and 38%
COc1cc2c(Oc3ccc4[nH]c(C)cc4c3F)ccnc2cc1OCC1(N)CC1 — abnormal ECG T wave incidence (sarcoma, recurrent or refractory, high-risk, paediatric; concentration not given, grade 3, whole group): 0%
C[C@@H](O)[C@@H](CO)NC(=O)[C@@H](CCCNC(=N)N)NC(=O)[C@@H]1CCCN1C(=O)[C@@H]1CSSC[C@H](NC(=O)[C@H](Cc2ccccc2)NC(=O)CN2CCN(CC(=O)O)CCN(CC(=O)O)CCN(CC(=O)O)CC2)C(=O)N[C@@H](Cc2ccc(O)cc2)C(=O)N[C@@H](Cc2ccccc2)C(=O)N[C@@H](CCC(N)=O)C(=O)N[C@@H](CC(N)=O)C(=O)N1 [gallium-68 labelled] — tissue uptake (healthy Wistar rat, spleen; intravenous, 8 MBq, 120 min, individual animals): 0.09 %ID/g
